Measurements gathered from unrelated publications.
Compare with care: the assays were run in different laboratories. ± gives the spread as reported.

SMILES	test	system	conditions	tissue uptake
CC(C)c1noc(C2CCN(c3ncnc(Nc4ccc(OCC[18F])cc4)c3[N+](=O)[O-])CC2)n1	ex vivo biodistribution after PET	C57BL/J male mice, blood	60 min	1.08 ± 0.02 %ID/g
COc1ccc(Nc2nc(Nc3ccc(OCCOCC[18F])cc3)ncc2Br)cc1		ICR mice, S180 tumour, spleen	intravenous, 30 min, together with: PF-562271 33 mg/kg oral 1 h before	2.53 ± 0.14 %ID/g
O=C(NCC1OC2CCC=CCCC2O1)c1ccc(COCCOCCOCC[18F])cc1 (stereo not shown)		healthy female BALB/c nude mice, muscle	intravenous, 7.4 MBq per mouse, 120 min	1.2 ± 0.1 %ID/g
Cc1cc(C)n(CCN(CCN)CCCCCCNC(=O)[C@@H](N)Cc2c[nH]cn2)n1.[99Tc+].[C-]#[O+].[C-]#[O+].[C-]#[O+]		BALB/c nude mice, A549 xenograft, muscle	intravenous, 15 min	0.58 ± 0.1 %IA/g
CN(O)C(=O)CCC(=O)NCCCN(CCCCN(CCCNC(=O)CCC(=O)N(C)O)C(=O)CCC(=O)N(C)O)C(=O)CCC(=O)N(C)O.[89Zr]	gamma counting	healthy Balb/c mice, adrenal	intravenous, 24 h, 89Zr-labelled complex	0.03 %ID/g
COc1ccc2c(c1)C(C)(C)C(/C=C/C1=C(Oc3ccc(C(=O)NCCCCOc4cc(CN(Cc5ccccn5)Cc5ccccn5)cc(CN(Cc5ccccn5)Cc5ccccn5)c4)cc3)C(=C/C=C3/N(CCCCS(=O)(=O)[O-])c4ccc(OC)cc4C3(C)C)CCC1)=[N+]2CCCCS(=O)(=O)[O-].O=[N+]([O-])[O-].O=[N+]([O-])[O-].[99Tc+].[C-]#[O+].[C-]#[O+].[C-]#[O+].[Zn+2]		healthy BALB/c mice, small intestine with contents	12 h	1.99 %ID/g
CC(C)C[C@H](NC(=O)[C@@H](CCCCNC(=O)[C@@H](Cc1ccccc1)NC(=O)CCCCCCCNC(=O)CN1CCN(CC(=O)O)CCN(CC(=O)O)CCN(CC(=O)O)CC1)NC(=O)[C@H](Cc1ccc(O)cc1)NC(=O)[C@H](CO)NC(=O)[C@H](Cc1c[nH]c2ccccc12)NC(=O)[C@H](Cc1c[nH]cn1)NC(=O)[C@@H]1CCC(=O)N1)C(=O)N[C@@H](CCCNC(=N)N)C(=O)N1CCC[C@H]1C(=O)NCC(N)=O [indium-111 labelled]	biodistribution	male athymic nude mice, DU-145 prostate cancer xenograft, lung	intravenous, 0.037 MBq, 4 h post-injection	0.12 ± 0.08 %ID/g
CCCC[C@H](NC(=O)CNC(=O)CNC(=O)[C@H](CCCCNC(=O)[C@H](CC(=O)O)NC(=O)C(C)c1ccc(CC(C)C)cc1)NC(=O)CN1CCN(CC(=O)O)CCN(CC(=O)O)CCN(CC(=O)O)CC1)C(=O)N[C@H]1CC(=O)NCCCC[C@@H](C(N)=O)NC(=O)[C@H](Cc2c[nH]c3ccccc23)NC(=O)[C@H](CCCNC(=N)N)NC(=O)[C@@H](Cc2ccccc2)NC(=O)[C@H](Cc2c[nH]cn2)NC1=O (stereo partly shown) [lutetium-177 labelled]		C57 mice, tumour-bearing, liver	2 h	2.56 ± 0.27 %ID/g
CC(=O)N([O-])CCCCCNC(=O)CCC(=O)N([O-])CCCCCNC(=O)CCC(=O)N([O-])CCCCCN.[89Zr+4]	gamma counting	healthy Balb/c mice, adrenal	intravenous, 1 h, 89Zr-labelled complex	1.03 ± 0.41 %ID/g
COc1ccc(Nc2nc(Nc3ccc(OCCOCCOCC[18F])cc3)ncc2Br)cc1		ICR mice, S180 tumour-bearing, brain	intravenous, 370 kBq, 60 min	2.5 ± 0.12 %ID/g
CC[C@H](C)[C@H](NC(=O)C[C@H](NC(=O)CN1CCN2CCN(CC1)CC(=O)[O][Al]([18F])[O]C(=O)C2)C(=O)O)C(=O)N[C@H]1CCc2cccc3c2N(C1=O)[C@H](C(=O)NCc1cn[nH]n1)C3		C57BL/6J mice, MC-38 tumour, anti-PD-1 treated, liver	0.5 h	1.02 ± 0.36 %ID/g
Cc1nc(N)nc2c1C(=O)N[C@@H](c1ccc(F)cc1-c1cccc(OCC[18F])n1)C2	ex vivo biodistribution	C57BL/6 mice, kidneys	intravenous, 1 MBq, 30 min	3.33 ± 0.2 %ID
O=C(NCC1OC2CCC=CCCC2O1)c1ccc([18F])nc1 (stereo not shown)		healthy female BALB/c nude mice, bladder	intravenous, 7.4 MBq per mouse, 10 min	3.2 ± 0.7 %ID/g

Some of these lines once more:
SMILES	test	system	conditions	tissue uptake
O=C(NCC1OC2CCC=CCCC2O1)c1ccc([18F])nc1 (stereo not shown)		healthy female BALB/c nude mice, bladder	intravenous, 7.4 MBq per mouse, 10 min	3.2 ± 0.7 %ID/g
CC[C@H](C)[C@H](NC(=O)C[C@H](NC(=O)CN1CCN2CCN(CC1)CC(=O)[O][Al]([18F])[O]C(=O)C2)C(=O)O)C(=O)N[C@H]1CCc2cccc3c2N(C1=O)[C@H](C(=O)NCc1cn[nH]n1)C3		C57BL/6J mice, MC-38 tumour, anti-PD-1 treated, liver	0.5 h	1.02 ± 0.36 %ID/g
